Assay results gathered from unrelated publications.
Each line is one published result; not all experiments were run side by side. ± marks the error that the study gave.

`[Cl-].[Cl-].[Os+2].c1cnc2c(c1)ccc1cccnc12.c1cnc2c(c1)ccc1cccnc12.c1cnc2c(c1)ccc1cccnc12` gave an EC50 of 40.3 ± 1.5 µM (SK-MEL-28; photocytotoxicity, resazurin; visible light, normoxia).
With `COC1=C(C)C(=O)c2cc(=O)n(C)c(C)c2C1=O` the EC50 was greater than 100 µM (786-0 HRE-luciferase reporter cells; reporter gene, inhibitor; 24 h).
`COC(=O)N[C@H](C(=O)N[C@@H](Cc1ccccc1)[C@@H](O)CN(Cc1ccc(-c2ccccn2)cc1)NC(=O)[C@@H](NC(=O)OC)C(C)(C)C)C(C)(C)C` — result for EC50: “inactive” (ΔE-expressing cells; ΔE mislocalization, high-content imaging).
`COc1cnc2cccc(N3CCc4c(cc(Cn5ccnc5C)cc4-c4cn(C)nc4C(F)(F)F)C3=O)c2c1` gave an EC50 of 0.298 µM (SNU668; cell growth, inhibitor; 120 h).
The EC50 of `CC1=NN(C)CC1c1cc2c(c(OCC3CCCN(C)C3)c1)OCCN(C(=O)Cc1c(C)noc1C)C2` (stereo not shown) is reported as greater than 50 µM (J774.A1 macrophages; cytotoxicity).
`Cc1c(O)cccc1C(=O)N[C@@H](CSc1ccccc1)[C@H](O)CN1C[C@H]2CCCC[C@H]2C[C@H]1C(=O)NC(C)(C)C` has an EC50 of 3.49 µM (ΔE-expressing cells; ΔE mislocalization, high-content imaging).
The EC50 of `CC(=O)O[C@H]1C(=O)[C@@]2(C)[C@H]([C@H](OC(=O)c3ccccc3)[C@]3(O)C[C@H](OC(=O)[C@H](O)[C@@H](NC(=O)c4ccccc4)c4ccccc4)C(C)=C1C3(C)C)[C@]1(OC(C)=O)CO[C@@H]1C[C@@H]2O` is reported as 0.00046 µM (CP-A pre-malignant; cell viability, PrestoBlue; 120 h).
`CC(C)CN(C[C@@H](O)[C@H](Cc1ccccc1)NC(=O)O[C@H]1CCOC1)S(=O)(=O)c1ccc(N)cc1` — result for EC50: “inactive” (ΔE-expressing cells; ΔE mislocalization, high-content imaging).
The EC50 of `Cc1noc(C)c1CC(=O)N1CCOc2c(cc(Br)cc2OCC2CCCN(C)C2)C1` (stereo not shown) is reported as greater than 50 µM (J774.A1 macrophages; cytotoxicity).
`C[C@]12CCCN1CC1=NNC(=O)c3cc(F)cc4[nH]c2c1c34` gave an EC50 of 0.054 µM (UWB1289 (BRCA1 deficient); cell growth, inhibitor, CellTiter-Glo; 7 days).
The EC50 of `CNc1ncc2c(/C=C/C(=O)N3CCC(OC)CC3)nn(Cc3cccc(C(F)(F)F)c3)c2n1` is reported as 0.39 µM (EPC-2 pre-malignant; cell viability, PrestoBlue; 120 h).
For `FC(F)(F)c1cc(-c2ccnc3[nH]c(C(F)(F)F)nc23)cc(C(F)(F)F)c1`, the EC50 was greater than 100 µM (L6 myoblasts; oxygen consumption rate).
For `C[C@]1(c2nc3c(C(N)=O)cccc3[nH]2)CCCN1`, the EC50 was 0.82 µM (MDA-MB-436 (BRCA1 deficient); cell growth, inhibitor, CellTiter-Glo; 7 days).
The EC50 of `CCn1cc(-c2cc(Cn3ccnc3)cc3c2CCN([C@H](c2cc(OC)ccn2)C2CC2)C3=O)c(C(F)(F)F)n1` is reported as 19.6 µM (C32; cell growth, inhibitor; 120 h).
For `N.N.O=C([O-])C1(C(=O)[O-])CCC1.[Pt+2]`, the EC50 was 58.9 µM (PEO1 platinum-sensitive; cell viability).
The EC50 of `COc1cc(-c2nn(CCN3CCC(N(C)C)CC3)c3ncnc(N)c23)ccc1NC(=O)OC(C)(C)C` is reported as 12.8 µM (EPC-2 pre-malignant; cell viability, PrestoBlue; 120 h).
`O=C(c1cc(Cc2n[nH]c(=O)c3ccccc23)ccc1F)N1CCN(C(=O)C2CC2)CC1` has an EC50 of 0.086 µM (UWB1289 (BRCA1 deficient); cell growth, inhibitor, CellTiter-Glo; 7 days).
`Cc1noc(C)c1CC(=O)N1CCOc2c(cc(-c3ccnn3C)cc2OCC2CCCN(C)C2)C1` (stereo not shown) has an EC50 of greater than 50 µM (J774.A1 macrophages; cytotoxicity).
`CC(C)(C)NC(=O)[C@@H]1CN(Cc2cccnc2)CCN1C[C@@H](O)C[C@@H](Cc1ccccc1)C(=O)N[C@H]1c2ccccc2C[C@H]1O`: EC50 “inactive” (ΔE-expressing cells; ΔE mislocalization, high-content imaging).
`C[C@@]12CCCc3coc(c31)C(=O)c1cc3c(cc12)C(=O)C=CC3=O` has an EC50 of greater than 100 µM (786-0 HRE-luciferase reporter cells; reporter gene, inhibitor; 24 h).
`CCn1cc(-c2cc(Cn3ccoc3=N)cc3c2CCN([C@@H](C)c2cc(OC)ccn2)C3=O)c(C(F)(F)F)n1` gave an EC50 of greater than 30 µM (NCI-H1437; cell growth, inhibitor; 120 h).
`C/C=C(/C)C(=O)O[C@H]1C(C)=C[C@]23C(=O)[C@@H](C=C(CO)[C@@H](O)[C@]12O)[C@H]1[C@@H](C[C@H]3C)C1(C)C` gave an EC50 of 135 µM (B16-F10; cytotoxicity, PrestoBlue; MEM with 10% FBS; 30 min).

For quick reference, copied from above:
`CC(C)CN(C[C@@H](O)[C@H](Cc1ccccc1)NC(=O)O[C@H]1CCOC1)S(=O)(=O)c1ccc(N)cc1` — result for EC50: “inactive” (ΔE-expressing cells; ΔE mislocalization, high-content imaging).
The EC50 of `Cc1noc(C)c1CC(=O)N1CCOc2c(cc(Br)cc2OCC2CCCN(C)C2)C1` (stereo not shown) is reported as greater than 50 µM (J774.A1 macrophages; cytotoxicity).
`C[C@]12CCCN1CC1=NNC(=O)c3cc(F)cc4[nH]c2c1c34` gave an EC50 of 0.054 µM (UWB1289 (BRCA1 deficient); cell growth, inhibitor, CellTiter-Glo; 7 days).
The EC50 of `CNc1ncc2c(/C=C/C(=O)N3CCC(OC)CC3)nn(Cc3cccc(C(F)(F)F)c3)c2n1` is reported as 0.39 µM (EPC-2 pre-malignant; cell viability, PrestoBlue; 120 h).
